Results from different studies.
Every numbered part comes from another study and shows a few of its results, in no order.
Sequence of UniProt Q16288 (whole entry, looked up): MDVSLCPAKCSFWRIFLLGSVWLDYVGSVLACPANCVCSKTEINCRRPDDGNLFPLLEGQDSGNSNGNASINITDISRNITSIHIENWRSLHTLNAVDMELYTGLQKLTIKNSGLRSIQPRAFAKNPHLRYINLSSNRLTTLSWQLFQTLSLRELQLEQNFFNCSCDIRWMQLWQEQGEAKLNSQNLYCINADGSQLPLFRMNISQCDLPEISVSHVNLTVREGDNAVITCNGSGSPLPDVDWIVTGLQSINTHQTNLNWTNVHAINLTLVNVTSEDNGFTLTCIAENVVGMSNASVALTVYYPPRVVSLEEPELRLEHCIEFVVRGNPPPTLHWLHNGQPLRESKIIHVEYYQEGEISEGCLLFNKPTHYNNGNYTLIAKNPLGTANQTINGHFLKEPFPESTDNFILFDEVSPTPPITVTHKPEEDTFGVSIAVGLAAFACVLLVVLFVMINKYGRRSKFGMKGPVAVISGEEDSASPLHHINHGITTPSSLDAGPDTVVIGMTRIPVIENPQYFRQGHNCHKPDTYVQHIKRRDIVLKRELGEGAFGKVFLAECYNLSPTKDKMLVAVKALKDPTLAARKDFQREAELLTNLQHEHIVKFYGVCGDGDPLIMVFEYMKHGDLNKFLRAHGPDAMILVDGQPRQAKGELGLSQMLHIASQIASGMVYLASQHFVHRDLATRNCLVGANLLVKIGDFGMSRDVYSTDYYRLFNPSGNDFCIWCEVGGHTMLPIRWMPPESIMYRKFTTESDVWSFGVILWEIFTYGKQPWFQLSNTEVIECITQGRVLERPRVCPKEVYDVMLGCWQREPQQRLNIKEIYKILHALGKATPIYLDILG
Sequence of UniProt Q9H422 (whole entry, looked up): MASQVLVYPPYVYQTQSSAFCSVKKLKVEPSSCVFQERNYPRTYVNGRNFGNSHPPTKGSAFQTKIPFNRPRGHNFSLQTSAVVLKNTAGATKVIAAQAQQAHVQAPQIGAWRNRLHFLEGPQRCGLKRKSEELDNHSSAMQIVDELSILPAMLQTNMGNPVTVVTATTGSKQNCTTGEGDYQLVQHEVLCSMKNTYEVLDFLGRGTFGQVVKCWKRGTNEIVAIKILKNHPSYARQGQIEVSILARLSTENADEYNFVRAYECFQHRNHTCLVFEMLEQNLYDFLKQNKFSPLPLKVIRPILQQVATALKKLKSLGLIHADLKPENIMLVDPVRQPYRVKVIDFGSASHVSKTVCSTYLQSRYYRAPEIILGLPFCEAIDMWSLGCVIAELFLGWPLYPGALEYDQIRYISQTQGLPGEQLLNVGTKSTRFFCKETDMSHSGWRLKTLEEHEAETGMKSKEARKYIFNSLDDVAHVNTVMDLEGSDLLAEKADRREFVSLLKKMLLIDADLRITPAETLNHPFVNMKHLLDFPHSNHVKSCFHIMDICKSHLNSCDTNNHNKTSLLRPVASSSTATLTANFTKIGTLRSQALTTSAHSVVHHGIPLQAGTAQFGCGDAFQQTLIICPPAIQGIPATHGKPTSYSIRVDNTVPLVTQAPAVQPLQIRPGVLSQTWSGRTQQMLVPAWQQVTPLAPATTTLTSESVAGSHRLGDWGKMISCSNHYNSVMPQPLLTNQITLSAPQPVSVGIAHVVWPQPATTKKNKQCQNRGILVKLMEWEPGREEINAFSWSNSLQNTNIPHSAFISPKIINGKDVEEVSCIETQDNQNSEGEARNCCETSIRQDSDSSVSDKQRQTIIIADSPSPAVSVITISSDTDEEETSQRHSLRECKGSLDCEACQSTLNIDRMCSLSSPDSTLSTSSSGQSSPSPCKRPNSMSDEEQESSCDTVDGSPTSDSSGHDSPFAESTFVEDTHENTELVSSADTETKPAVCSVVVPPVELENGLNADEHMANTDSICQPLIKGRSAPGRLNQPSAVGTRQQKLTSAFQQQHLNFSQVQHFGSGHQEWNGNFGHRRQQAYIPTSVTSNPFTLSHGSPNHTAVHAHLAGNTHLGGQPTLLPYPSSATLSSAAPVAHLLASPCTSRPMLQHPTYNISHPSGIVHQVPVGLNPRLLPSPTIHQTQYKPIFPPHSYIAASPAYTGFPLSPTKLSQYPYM
Sequence of UniProt Q14289 (whole entry, looked up): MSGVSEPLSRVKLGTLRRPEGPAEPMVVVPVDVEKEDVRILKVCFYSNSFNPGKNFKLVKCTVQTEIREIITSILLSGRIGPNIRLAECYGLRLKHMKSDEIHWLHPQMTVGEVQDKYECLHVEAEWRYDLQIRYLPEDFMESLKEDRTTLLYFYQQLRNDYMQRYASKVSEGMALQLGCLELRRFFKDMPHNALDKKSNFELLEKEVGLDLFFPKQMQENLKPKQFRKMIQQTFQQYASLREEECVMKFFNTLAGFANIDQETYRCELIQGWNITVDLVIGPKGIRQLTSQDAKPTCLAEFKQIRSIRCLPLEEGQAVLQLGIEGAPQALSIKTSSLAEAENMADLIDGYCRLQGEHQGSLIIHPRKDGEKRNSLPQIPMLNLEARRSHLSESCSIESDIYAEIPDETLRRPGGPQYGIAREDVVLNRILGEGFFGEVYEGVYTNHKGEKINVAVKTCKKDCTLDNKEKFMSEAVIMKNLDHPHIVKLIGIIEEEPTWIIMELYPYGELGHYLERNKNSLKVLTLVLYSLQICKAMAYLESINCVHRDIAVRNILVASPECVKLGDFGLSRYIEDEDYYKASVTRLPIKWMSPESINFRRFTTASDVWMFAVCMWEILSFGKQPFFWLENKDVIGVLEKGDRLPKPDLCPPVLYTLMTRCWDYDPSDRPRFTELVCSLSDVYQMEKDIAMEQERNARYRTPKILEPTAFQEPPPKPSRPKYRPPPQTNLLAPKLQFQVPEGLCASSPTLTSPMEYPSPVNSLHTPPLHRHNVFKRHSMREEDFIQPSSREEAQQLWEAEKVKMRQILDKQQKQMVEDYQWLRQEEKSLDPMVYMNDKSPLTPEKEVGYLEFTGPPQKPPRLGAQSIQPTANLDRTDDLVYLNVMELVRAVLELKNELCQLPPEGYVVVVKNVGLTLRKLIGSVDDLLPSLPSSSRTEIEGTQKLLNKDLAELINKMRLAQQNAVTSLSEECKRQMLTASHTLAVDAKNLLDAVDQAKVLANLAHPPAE
Sequence of UniProt O75385 (whole entry, looked up): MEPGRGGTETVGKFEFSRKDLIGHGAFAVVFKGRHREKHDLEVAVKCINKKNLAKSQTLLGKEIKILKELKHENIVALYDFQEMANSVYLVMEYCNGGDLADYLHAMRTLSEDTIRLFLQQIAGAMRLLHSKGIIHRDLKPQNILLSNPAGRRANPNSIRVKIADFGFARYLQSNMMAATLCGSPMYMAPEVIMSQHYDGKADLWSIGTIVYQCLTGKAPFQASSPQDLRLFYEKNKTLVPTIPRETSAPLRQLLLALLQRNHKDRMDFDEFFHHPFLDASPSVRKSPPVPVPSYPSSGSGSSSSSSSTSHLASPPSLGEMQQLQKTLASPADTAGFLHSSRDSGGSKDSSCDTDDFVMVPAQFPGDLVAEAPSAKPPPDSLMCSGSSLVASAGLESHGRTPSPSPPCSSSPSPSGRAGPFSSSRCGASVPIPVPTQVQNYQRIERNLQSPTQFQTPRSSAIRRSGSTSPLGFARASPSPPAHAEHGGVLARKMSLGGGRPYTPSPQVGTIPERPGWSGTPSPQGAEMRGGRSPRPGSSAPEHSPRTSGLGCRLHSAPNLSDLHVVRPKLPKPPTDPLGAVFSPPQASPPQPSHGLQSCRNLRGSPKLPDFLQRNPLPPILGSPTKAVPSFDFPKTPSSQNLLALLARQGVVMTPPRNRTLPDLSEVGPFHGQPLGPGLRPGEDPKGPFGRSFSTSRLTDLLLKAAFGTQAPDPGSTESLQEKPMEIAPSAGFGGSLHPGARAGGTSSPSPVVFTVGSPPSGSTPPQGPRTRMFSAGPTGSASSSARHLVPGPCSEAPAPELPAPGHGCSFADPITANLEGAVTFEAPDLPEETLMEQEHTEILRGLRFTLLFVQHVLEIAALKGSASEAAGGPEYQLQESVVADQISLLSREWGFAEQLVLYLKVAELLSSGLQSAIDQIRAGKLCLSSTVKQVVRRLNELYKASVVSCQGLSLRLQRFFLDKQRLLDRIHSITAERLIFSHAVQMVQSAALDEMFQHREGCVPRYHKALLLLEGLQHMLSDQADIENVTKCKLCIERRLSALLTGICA
Sequence of UniProt P51955 (whole entry, looked up): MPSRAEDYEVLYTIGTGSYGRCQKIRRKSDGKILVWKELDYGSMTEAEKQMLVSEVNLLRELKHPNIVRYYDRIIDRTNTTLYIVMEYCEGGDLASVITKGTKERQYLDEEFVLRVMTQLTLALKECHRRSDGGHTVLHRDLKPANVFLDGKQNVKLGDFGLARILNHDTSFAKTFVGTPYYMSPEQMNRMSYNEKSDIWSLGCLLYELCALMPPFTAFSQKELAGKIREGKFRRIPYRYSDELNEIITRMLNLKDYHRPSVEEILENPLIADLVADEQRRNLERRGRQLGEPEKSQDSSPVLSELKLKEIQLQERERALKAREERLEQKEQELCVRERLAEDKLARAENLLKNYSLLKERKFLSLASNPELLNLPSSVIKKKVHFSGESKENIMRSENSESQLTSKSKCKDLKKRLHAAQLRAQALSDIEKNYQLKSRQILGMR
Sequence of UniProt Q9NY57 (whole entry, looked up): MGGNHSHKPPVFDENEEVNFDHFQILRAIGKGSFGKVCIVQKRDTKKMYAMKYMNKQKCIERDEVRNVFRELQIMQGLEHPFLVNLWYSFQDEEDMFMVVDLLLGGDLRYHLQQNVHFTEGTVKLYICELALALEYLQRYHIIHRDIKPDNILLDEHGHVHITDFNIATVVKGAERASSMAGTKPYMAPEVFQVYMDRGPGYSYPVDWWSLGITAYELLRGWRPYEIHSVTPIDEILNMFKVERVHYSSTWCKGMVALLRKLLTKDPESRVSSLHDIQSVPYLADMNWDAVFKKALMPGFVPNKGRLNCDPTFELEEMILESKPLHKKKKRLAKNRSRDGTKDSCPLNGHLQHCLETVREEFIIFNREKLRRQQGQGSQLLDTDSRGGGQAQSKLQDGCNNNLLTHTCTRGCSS

Sample 1
SMILES: CN(C)C(=O)Cn1cc(-c2nc(C3(c4ccc(-c5cnc(N)nc5)cc4)CC3)no2)cn1
Effect on: cell-free assay
Method: competition with immobilised ligand
Concentration: 1 µM
Quantity: remaining binding
COQ8A (Homo sapiens, UniProt Q8NI60): 99%
MAP3K20 (Homo sapiens, UniProt Q9NYL2): 92%
MAK (Homo sapiens, UniProt P20794): 87%
Mast/stem cell growth factor receptor Kit, autoinhibited (KIT, Homo sapiens, UniProt P10721): 77%
PDGFRA (Homo sapiens, UniProt P16234): 83%
STK32B (Homo sapiens, UniProt Q9NY57): 100%
NEK2 (Homo sapiens, UniProt P51955): 100%
FLT3 (Homo sapiens, UniProt P36888, F691L/ITD): 85%
NTRK3 (Homo sapiens, UniProt Q16288): 97%
DCLK1 (Homo sapiens, UniProt O15075): 88%
MARK1 (Homo sapiens, UniProt Q9P0L2): 100%
TESK1 (Homo sapiens, UniProt Q15569): 94%
PIK3CA (Homo sapiens, UniProt P42336, M1043I): 100%
PIP4K2C (Homo sapiens, UniProt Q8TBX8): 100%
ZAP70 (Homo sapiens, UniProt P43403): 94%
ULK1 (Homo sapiens, UniProt O75385): 75%

Sample 2
SMILES: N#CC(=C(N)Sc1ccc(N)cc1)c1ccccc1C(F)(F)F
Effect on: enzyme activity
Mode: inhibitor
Concentration: 0.5 µM
Relative to: control
Quantity: remaining activity
Cyclin-dependent kinase 2, with cyclin A (CDK2, Homo sapiens, UniProt P24941): 95.9%
EGFR (Homo sapiens, UniProt P00533): 97.3%
PRKD1 (Homo sapiens, UniProt Q15139): 103%
MAP3K2 (Homo sapiens, UniProt Q9Y2U5): 115%
HIPK3 (Homo sapiens, UniProt Q9H422): 114%
MAPK10 (Homo sapiens, UniProt P53779): 94.7%
MAP3K8 (Homo sapiens, UniProt P41279): 96.5%
BRSK1 (Homo sapiens, UniProt Q8TDC3): 91.2%
Aurora kinase A (AURKA, Homo sapiens, UniProt O14965): 103%
NEK9 (Homo sapiens, UniProt Q8TD19): 99.2%
CAMK1D (Homo sapiens, UniProt Q8IU85): 129%
GRK5 (Homo sapiens, UniProt P34947): 102%
DMPK (Homo sapiens, UniProt Q09013): 102%
DYRK4 (Homo sapiens, UniProt Q9NR20): 92.4%
RET (Homo sapiens, UniProt P07949): 101%
PTK2B (Homo sapiens, UniProt Q14289): 105%
ROS1 (Homo sapiens, UniProt P08922): 94.4%
NTRK3 (Homo sapiens, UniProt Q16288): 101%
CAMK1G (Homo sapiens, UniProt Q96NX5): 96.6%
SLK (Homo sapiens, UniProt Q9H2G2): 102%
CDK7 (Homo sapiens, UniProt P50613): 100%
CSNK2A2 (Homo sapiens, UniProt P19784): 86%
PKN2 (Homo sapiens, UniProt Q16513): 99.9%

Sample 3
Cell line: A-375
Concentration: 100 µM
Time: 36 h
Quantity: viability
CC(C)N(CCCCOCC(=O)NS(C)(=O)=O)c1cnc(-c2ccccc2)c(-c2ccccc2)n1: 60.1%
Cc1cccc(C)c1OCC(=O)N[C@@H](Cc1ccccc1)[C@@H](O)C[C@H](Cc1ccccc1)NC(=O)[C@H](C(C)C)N1CCCNC1=O: 30.7%
COC(=O)C1=C(C)NC(C)=C(C(=O)OCCN(C)Cc2ccccc2)C1c1cccc([N+](=O)[O-])c1 (stereo not shown): 4.76%
O=C1CC2(CCCC2)CC(=O)N1CCCCN1CCN(c2ncccn2)CC1: 90.5%
NCCCC[C@H](N[C@@H](CCc1ccccc1)C(=O)O)C(=O)N1CCC[C@H]1C(=O)O: 94%
COc1cc(C=O)ccc1O: 120%
CNCCCN1c2ccccc2CCc2ccccc21: -1.34%
CC(=O)[C@H]1CC[C@H]2[C@@H]3C[C@H](C)C4=CC(=O)CC[C@]4(C)[C@H]3[C@@H](O)C[C@]12C: 21.3%
CCc1cc2c(cc1N1CCC(N3CCOCC3)CC1)C(C)(C)c1[nH]c3cc(C#N)ccc3c1C2=O: 4.63%
CC1(C)S[C@@H]2[C@H](NC(=O)[C@H](C(=O)O)c3ccsc3)C(=O)N2[C@H]1C(=O)O: 101%
CC(=O)Nc1ccc(O)cc1: 123%
CNCC(O)c1ccc(O)c(O)c1 (racemic): 132%
N=C(N)NC(=O)Cc1c(Cl)cccc1Cl: 88.4%
COc1ccc(-c2nc3ccc(C4=NNC(=O)CC4C)cc3[nH]2)cc1 (stereo not shown): 32.2%
Nc1ccc(O)c(C(=O)O)c1: 91.3%
CC(C(=O)O)c1ccc2c(c1)[nH]c1ccc(Cl)cc12 (stereo not shown): 88.5%
CC(=O)OC/C=C(C)/C=C/C=C(C)/C=C/C1=C(C)CCCC1(C)C: 16.6%
COC(=O)[C@@H]1[C@H]2C[C@H]3c4[nH]c5ccccc5c4CCN3C[C@@H]2CC[C@@H]1O: 53.7%

Sample 4
Host: mouse
Sample: microsomes or S9
Concentration: 2 µM
Time: 0.5 h
Quantity: remaining compound
CC1=CC[C@@H]2CN(C(=O)c3sc(C(C)C)nc3C)C[C@@H]2C1: 1.34%
CCn1cc(C(=O)NCCNC(=O)c2cn(CC)nc2C)c(C)n1: 89.2%
O=c1[nH]c2cc(S(=O)(=O)N3CC[C@H]4[C@H](C3)OCc3cnnn34)ccc2o1: 94%
CCOc1cc2c(-c3ccccc3)c(C)oc2cc1C(=O)c1ccccc1: 6.04%
O=C(C1=COCCO1)N(CCn1cccn1)c1nc2c(Cl)cccc2s1: 24.8%
COc1ccc2[nH]cc(CCn3c(N)cc(=O)[nH]c3=O)c2c1: 64.7%
COCCOc1cc(=O)n2c(c1C(=O)N1CCC(Cc3ccccc3)CC1)CCOCC2: 38.6%
Cc1ncc2c(c1O)COC(C)OC2 (stereo not shown): 97.3%
Cc1cc(C)cc(-n2nc(NC(=O)NC3(c4noc(C)n4)CCC3)cc2C)c1: 33.2%
CC(C)(C)OC(=O)N1CCC(Nc2nccn3c(Br)cnc23)CC1: 3.75%
Cc1nc(NCC(O)CO)nc(C)c1CC(C)C (stereo not shown): 72.7%
CC1=C(C(=O)OC(C)C)C(c2ccc(F)cc2)N2N=CNC2=N1 (stereo not shown): 14.5%
Cc1cc(C)c(NS(=O)(=O)c2cnc(O)[nH]c2=O)c(C)c1: > 100%
COc1cc(Cn2nnc(-c3ccc(C)cc3)n2)c(OC)cc1Br: 98.8%
O=C(Nc1ccccc1C(F)(F)F)N1Cc2c(sc3c2CCCC3)-n2cccc2C1c1ccccc1 (stereo not shown): 0.938%
C/C(=C\c1c[nH]c(-c2ccccc2)n1)c1cnccn1: 13.3%

A few entries again (sample 4):
CCOc1cc2c(-c3ccccc3)c(C)oc2cc1C(=O)c1ccccc1: 6.04%
O=C(C1=COCCO1)N(CCn1cccn1)c1nc2c(Cl)cccc2s1: 24.8%
COc1ccc2[nH]cc(CCn3c(N)cc(=O)[nH]c3=O)c2c1: 64.7%
COCCOc1cc(=O)n2c(c1C(=O)N1CCC(Cc3ccccc3)CC1)CCOCC2: 38.6%
Cc1ncc2c(c1O)COC(C)OC2 (stereo not shown): 97.3%
Cc1cc(C)cc(-n2nc(NC(=O)NC3(c4noc(C)n4)CCC3)cc2C)c1: 33.2%
CC(C)(C)OC(=O)N1CCC(Nc2nccn3c(Br)cnc23)CC1: 3.75%
